Measured values pooled from the literature.
Every numbered part comes from another study and shows a few of its results, in no order. Values joined by “and” are separate records of one study, mostly repeats; a detail may differ.

Sample 1 — host: mouse; medium: microsomes or S9; concentration: 2 µM; time: 0.5 h
Structure (SMILES) | remaining compound [%]
Cc1c(C)n(CCN2CCOCC2)c2ncn3nc(-c4ccc(Cl)cc4Cl)nc3c12 | > 100
COc1ccc(Nc2nnc(-c3ccc(C)c(S(=O)(=O)N4CCCCC4)c3)c3ccccc23)cc1C(N)=O | 0.128
Cc1ccc(C(C)NS(=O)(=O)c2ccc(F)c(F)c2)c(C)c1 (centres unmarked) | < 1
O=C(CCn1ccc2ccc(F)cc21)Nc1nc[nH]n1 | 84.3
Cc1nn(C(C)(C)C)c(C)c1S(=O)(=O)N1CC(C)OC(C)(C)C1 (centres unmarked) | 2.42
CC(=O)O[C@H](C)[C@@H]1NC(=O)[C@H](CC(C)C)NC1=O | 46.5

Sample 2 — cell line: mouse MPNST tumor cells; method: high-content nuclear imaging; refers to: cell number; concentration: 10 µM; time: 12 h; notes: mean of 2 replicates; reference: plate mean; direction: higher = more cells
Structure (SMILES) | nuclei count
NS(=O)(=O)Cc1noc2ccccc12 | 1.73 z-score and 0.152 z-score and 1.01 z-score
c1ccc2c(c1)CCCC2C1=NCCN1 (centres unmarked) | 0.58 z-score
O=C(Nc1ccc([N+](=O)[O-])cc1Cl)c1cc(Cl)ccc1O | 3.56 z-score and 1.4 z-score
CN(C)CCCC1(c2ccc(F)cc2)OCc2cc(C#N)ccc21 (centres unmarked) | 3.4 z-score and 3.58 z-score
CN1CCN(c2nc(-c3ccc(C(=O)NC4(C(=O)NCC#N)CCCCC4)cc3)cs2)CC1 | 2.35 z-score

Sample 3 — observed: binding; method: radioligand binding; concentration: 10 µM
Target: D(2) dopamine receptor (DRD2, Homo sapiens, UniProt P14416)
Sequence of UniProt P14416 (whole entry, looked up): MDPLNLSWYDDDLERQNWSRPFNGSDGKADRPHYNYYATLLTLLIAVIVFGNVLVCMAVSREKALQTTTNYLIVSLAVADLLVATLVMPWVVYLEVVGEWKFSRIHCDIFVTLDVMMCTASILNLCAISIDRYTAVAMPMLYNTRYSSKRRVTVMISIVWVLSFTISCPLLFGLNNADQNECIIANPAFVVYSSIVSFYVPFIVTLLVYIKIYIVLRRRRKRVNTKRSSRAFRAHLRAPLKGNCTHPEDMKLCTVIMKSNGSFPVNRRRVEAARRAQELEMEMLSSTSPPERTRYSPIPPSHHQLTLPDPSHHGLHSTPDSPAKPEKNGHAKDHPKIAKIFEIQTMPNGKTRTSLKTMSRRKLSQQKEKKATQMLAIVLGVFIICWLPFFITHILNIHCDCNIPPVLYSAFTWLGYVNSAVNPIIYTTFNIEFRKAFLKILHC
Compound | inhibition
CC(=O)Nc1nc(CN2CCC[C@H](Cc3cc(C)nc(C)c3)C2)cs1 | 8.04%
CN(C)C(=O)Cn1cc(-c2nc([C@@](C)(c3ccc(-c4cnc(N)nc4)cc3)C3CC3)no2)cn1 | 13.6%
CC1=C(C#N)[C@@H](c2ccc3[nH]nc(C)c3c2)C(C#N)=C(c2ccc(Cl)cc2)N1 | 10.6%
O=C1c2ccc(Nc3ccc(F)cc3F)cc2CCc2ccc(OC[C@H](O)CO)cc21 | 7.19%
CC(C)(O)c1cncc(-c2nc3ccc(F)cc3n2C2CC2)c1 | -27.1%
CC(=O)N1CCC(c2ccc(C(=O)NC(=N)N)cc2C(F)(F)F)CC1 | -19.5%
CC(C)CC(=O)N1CCc2nc(-c3ccc(Br)cc3)nc(N(C)Cc3ccccc3)c2C1 | -26.5%
Cc1cc(C)c(-n2ccn3nc(-c4cccnc4)cc23)cc1NC(=O)c1cc(C#N)cc(S(F)(F)(F)(F)F)c1 | 8.74%
Cc1nccc(COC(=O)N2C[C@@H]3[C@@H](CNC(=O)c4ccc5[nH]nnc5c4)[C@@H]3C2)n1 | -13.1%
Cc1nc(N2CC[C@@H](O)C2)ncc1-c1cc(C(F)(F)F)cc2[nH]ncc12 | 12.6%
CCOC(=O)c1cc2cc(-c3cc(C(=O)NCc4ccc(C(=O)O)cc4)nn3C)ccc2[nH]1 | -29%
COc1cc(-c2cn(C3CCc4ccccc4N(CC(F)(F)F)C3=O)nn2)ccc1-n1ccc(C)n1 (centres unmarked) | 7.85%
CN1CCN(C(=O)C(C)(C)c2ccc(C(=O)Nc3cn4cc(-c5ccncc5)ccc4n3)cc2)CC1 | 10.8%
COCCc1ccc(-c2c(C)nc3c(N4CCOCC4)ccnn23)cn1 | -10.5%
CC1=C(C#N)C(c2ccc3c(c2)c(NC(=O)c2ccccc2C)nn3C)C(C#N)=C(C)N1 | -13.7%
Cc1cc(-n2nc(Cc3cc(F)cc(C(F)(F)F)c3)nc2C)ccc1C(N)=O | 0.68%
O=C(NC[C@@H]1[C@H]2CN(C(=O)OCc3cc(C(F)(F)F)cc(C(F)(F)F)c3)C[C@@H]12)c1ccc2[nH]nnc2c1 | 7.71%
O=C([C@H]1C[C@H](O)CN1c1ccc(Cl)cc1)N1CC2COCC(C1)N2Cc1ccc(Cl)cc1 | -16.5%
COc1cccc(CNC(=O)c2nc3scc(COCc4ccc(C(=O)O)cc4)c3c(=O)[nH]2)c1 | 7.09%
C[C@@]1(Cc2ccc(C#N)cc2)C(=O)N(c2cc(Cl)cc(Cl)c2)c2ncc(C(=O)NC3(c4nc(C5CCC5)no4)CC3)n21 | 16.4%

Sample 4 — organism: Cryptosporidium parvum; cell line: HCT-8; strain: nanoluciferase-expressing
Structure (SMILES): CN(C(=O)c1ccn2ncc(-c3ccc(C(N)=O)cc3)c2c1)c1ccc(C#N)cn1
assay | conditions | how to read | parasite luminescence
time-kill | 0.2469 µM, 72 h | higher = more parasites | 17800 RLU and 20300 RLU
washout | concentration not given, exposure 0-72 h post-infection, unit not given | reference: day 0 RLU | -1880 and -1850 and -1980 and -1840
time-kill | 0.7407 µM, 72 h | higher = more parasites | 15400 RLU and 15700 RLU
time-kill | 6.667 µM, 4 h | higher = more parasites | 92200 RLU and 87200 RLU
time-kill | 0.7407 µM, 48 h | higher = more parasites | 27300 RLU and 24300 RLU
time-kill | 0.00305 µM, 48 h | higher = more parasites | 166000 RLU and 179000 RLU
time-kill | 0.02743 µM, 72 h | higher = more parasites | 133000 RLU and 171000 RLU

Sample 5 — action: agonist
Target: Beta-1 adrenergic receptor (ADRB1, Homo sapiens, UniProt P08588)
Sequence of UniProt P08588 (whole entry, looked up): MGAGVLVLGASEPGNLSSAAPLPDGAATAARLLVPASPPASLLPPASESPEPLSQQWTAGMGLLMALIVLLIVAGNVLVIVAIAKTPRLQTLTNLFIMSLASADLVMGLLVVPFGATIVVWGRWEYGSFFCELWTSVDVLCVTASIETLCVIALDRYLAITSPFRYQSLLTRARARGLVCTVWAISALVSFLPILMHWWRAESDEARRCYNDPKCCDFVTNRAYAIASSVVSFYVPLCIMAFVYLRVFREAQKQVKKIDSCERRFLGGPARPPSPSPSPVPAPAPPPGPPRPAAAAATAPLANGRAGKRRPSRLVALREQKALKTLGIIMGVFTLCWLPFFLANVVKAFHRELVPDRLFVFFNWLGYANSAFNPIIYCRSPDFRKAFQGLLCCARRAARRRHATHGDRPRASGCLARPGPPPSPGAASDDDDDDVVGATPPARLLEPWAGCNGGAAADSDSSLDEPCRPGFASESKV
SMILES | EC50 [µM]
Cc1cc2c(-c3cccc(O)c3)nc(-c3c(C)noc3C)cc2[nH]1 | ≥ 100
COc1ccc2[nH]cc(C3=CCN(c4ccc(C#N)cc4F)CC3)c2c1 | ≥ 100
COc1ccccc1N1CCN(C(=O)c2ccc(F)cc2)CC1 | ≥ 100
Cc1nn(C)c2nc(NCCCC3CCOC3)sc12 (centres unmarked) | ≥ 100
Cc1cc(C)n(-c2ccc(=O)n(C3CCN(c4ccc5ccccc5n4)CC3)n2)n1 | ≥ 100
O=C(c1nc(-c2ccccc2)cc2[nH]ccc12)N1CCOCC1 | ≥ 100
